{"data": "Measurements of several laboratories", "note": "Numbered parts are unrelated; each lists some results of a single study. Changes are numbered by the printed parent chain."}
{"data": "Block 1", "target": "CCNA1, cyclin fold, Cln2 fusion (human)", "method": "yeast growth competition, sequencing", "medium": "yeast", "notes": "strong parent motif", "reference": "not given", "reading": "higher = stronger binding", "parent": "viral docking peptide; TSVRRALFTGGSD"}
{"Substitution": "TSVRRAPFTGGSD [L7P]", "normalised enrichment score": -0.0815}
{"Substitution": "TSVRRALFTGGMD [S12M]", "normalised enrichment score": 1.19}
{"Substitution": "TSVRRALATGGSD [F8A]", "normalised enrichment score": 0.268}
{"Substitution": "TSVRRALFTGRSD [G11R]", "normalised enrichment score": 0.518}
{"Substitution": "TTVRRALFTGGSD [S2T]", "normalised enrichment score": 1.65}
{"Substitution": "TNVRRALFTGGSD [S2N]", "normalised enrichment score": 1.36}
{"Substitution": "TSVIRALFTGGSD [R4I]", "normalised enrichment score": -0.0193}
{"Substitution": "TSVCRALFTGGSD [R4C]", "normalised enrichment score": -0.0212}
{"Substitution": "TSVRFALFTGGSD [R5F]", "normalised enrichment score": -0.206}
{"Substitution": "TSVRRALDTGGSD [F8D]", "normalised enrichment score": -0.115}
{"Substitution": "TSVRRHLFTGGSD [A6H]", "normalised enrichment score": 0.612}
{"Substitution": "TSVRRALFTWGSD [G10W]", "normalised enrichment score": 0.287}
{"Substitution": "TSVRRALPTGGSD [F8P]", "normalised enrichment score": 0.199}
{"Substitution": "TSVLRALFTGGSD [R4L]", "normalised enrichment score": -0.317}
{"Substitution": "TSVRRALFTGGRD [S12R]", "normalised enrichment score": 0.823}
{"Substitution": "TSVRRAHFTGGSD [L7H]", "normalised enrichment score": -0.145}
{"Substitution": "TMVRRALFTGGSD [S2M]", "normalised enrichment score": 1.03}
{"Substitution": "TGVRRALFTGGSD [S2G]", "normalised enrichment score": 1.61}
{"Substitution": "TSNRRALFTGGSD [V3N]", "normalised enrichment score": -0.338}
{"Substitution": "TSVRRALFTKGSD [G10K]", "normalised enrichment score": 0.473}
{"Substitution": "TSVRRALFTGDSD [G11D]", "normalised enrichment score": 1.32}
{"Substitution": "TSVRRALFTGKSD [G11K]", "normalised enrichment score": 1.09}
{"data": "Block 2", "target": "Hepatocyte nuclear factor 3-alpha (Foxa1, Mus musculus, UniProt P35582, residues 1-468, full length assumed)", "method": "EMSA with sequencing", "form": "double-stranded DNA, one strand shown", "medium": "in vitro", "concentration": "10 and 20 nM", "notes": "whole designed probe, mean of two concentrations, ends assumed", "reference": "negative control set to 0", "reading": "higher = stronger binding", "constant ends, left off below": "GTGAGCGGTGCCCATTGATGGGGAAC … TTTCACTGGGATCGTGGGGAC", "UniProt P35582, sequence (whole entry, looked up)": "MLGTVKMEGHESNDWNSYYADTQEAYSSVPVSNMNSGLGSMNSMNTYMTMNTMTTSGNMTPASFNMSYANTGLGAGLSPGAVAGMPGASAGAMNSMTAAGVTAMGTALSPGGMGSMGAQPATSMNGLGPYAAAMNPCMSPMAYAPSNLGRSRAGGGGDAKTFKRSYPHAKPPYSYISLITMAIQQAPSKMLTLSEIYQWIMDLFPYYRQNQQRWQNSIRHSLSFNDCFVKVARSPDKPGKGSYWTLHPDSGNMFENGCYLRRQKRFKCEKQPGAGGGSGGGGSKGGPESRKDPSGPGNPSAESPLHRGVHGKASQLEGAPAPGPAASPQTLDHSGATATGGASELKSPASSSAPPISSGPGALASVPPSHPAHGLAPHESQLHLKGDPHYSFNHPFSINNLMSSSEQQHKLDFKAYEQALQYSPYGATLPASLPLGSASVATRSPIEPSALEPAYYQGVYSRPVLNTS"}
{"Strand": "ATCTTCCCCCTCTTCCTTGCCCCACCAGCTCACCTTCCCGGGTTATTTGCAGATAGGAAAATAAATAAAGCCGGCATTCGTTAACCCTCTTCACGCGCATACTGCTGTTTGCTCTGGATCTAACATGGTCCTTTGGGATGAATCATGTCCGGGAGAGCAAAGCACCGTGTCAGGGCCATGATCCGGGGTGGCC", "normalised bound fraction": "0.349 ratio"}
{"Strand": "AGGTGAATTGGCTGCTTCCATCCTGGCTTGGAACTTCAGACATAGAAGCCTTGGGACTCTGACTCATGCTTCTCAGGACTTTCTCCAGATGCTTGTTTGCTGAATCTCTGTGGATCACGTGACCTTAGCCAGGGATGTTGGTGAAACTGTGTGTTGGTCTAGGTACCTAGCCCATGCTAGGTGCTCATCGAAT", "normalised bound fraction": "0.0514 ratio"}
{"Strand": "TAGGGTCCAATTCTGTCTGAGAAACTAGCGAGCCATATAAATATTGTATCTGGGTCAACAAACAGCTGTTCAAAAATATCTGTGGCATTTGCTGTTTACTTTGATTGCCTTGGATAATAGTCACTAGGCAACAGGACGGTTTGCTCTTTCGTGCATGGCGGCCGTTAGTTAAGTTGTTATATAACATGCCAAG", "normalised bound fraction": "0.368 ratio"}
{"Strand": "CCAAGAAAAAGAGCCTTTGGGTGAGTGCACAGCACCCCTCTGTCTTAGGTCCCCAGATATATCTCAATTTGGGCTTCTTCTGGAACATGAAACAAATTACTTTGAGTTTCCTACGAAAACATAGTGCTGGCCTTAGACTTCCTATCCTGAAACCCCACGTCTATTTCCCAACCTCATGCATGGAAAAGTGCTC", "normalised bound fraction": "-0.0817 ratio"}
{"Strand": "CTGAATCCGCCTTCTGTCCCACACCCAACTCCTGCTCTGCCTCTGCAGCCACCTGCAGGCTCTCAGCGCACTCCTCAAAATCTATTTCTGCTGTGTTTACCCAACACCACCTGCAGGAAACTCCCTTGAAATTCCCAGGCCTTTCCCAGAGTTCCTCAGTTCCTTTTCTTAAAATTCCTGCTGTCCCCAAAGA", "normalised bound fraction": "0.229 ratio"}
{"Strand": "TGCTTTGTTTTTGAGAGAAGGTTTCATCTGAAACAGAAACAGACACACATACCACGAGCCCGATTACTATAGAACCGAAGAGACCTTTCCAGCAGATTACACTTCGGATGTAAAATGGCAATTTGACATAGACTAACAGTGTGATGTGAGCATCTGCGTAAAAAGGCGACATATGGAGCATGCCCAGTGTGGG", "normalised bound fraction": "0.0302 ratio"}
{"Strand": "ACAGCCAAAAATAAAATTGATTTGGAATGTGATTTACCCAGATAAATCATCAGCTCAAGGGACTGCTTGGAGAGAAGGAGAGCTGACCTATGCCTGTTGACTCACCATGTAAACACAGTCATGGTAATTTACTAGCAGCAAGACCTGTTTCCTGCTGAGCAGTTCCAGTCTGAGCTCCAGAGCTAGACGCAGA", "normalised bound fraction": "0.145 ratio"}
{"Strand": "GGCTGCTTCTCCCTTTTGGCTGTTGTGCATATTGCTGCTATGAACATGGGTGTGCAAATACCTCTTTGAGTCACTGCTTTCACTTCTTTTTAGTATTTACTCAGCAGTGGAATTGCTGAGTCATGTGATAATTCTGTGTTTAATTTTTTTTGAGGAAACTCCATACTGTTCTCATGGTGGCTGCACCATTTAA", "normalised bound fraction": "0.358 ratio"}
{"data": "Block 3", "target": "UBE2D2 UBC core domain (UniProt P62837)", "method": "yeast two-hybrid", "medium": "yeast", "notes": "mostly zero background", "reference": "not given", "reading": "higher = stronger interaction", "B1": "MARCHF2 RING domain (UniProt Q9P0N8); chain RLLSTVIRALDTPSDGPFCRICHEGANGECLLSPCGCTGTLGAVHKSCLEKWLSSSNTSYCELCHTEFAVEKRPRPLTEWL", "B2": "RNF17 RING domain (UniProt Q9BXT8); chain SQPWGAAEIQCTRCGRRVSRSSGHHCELQCGHAFCELCLLMTEECTTIICPDCEVATAVNTRQR", "B3": "SHPRH RING domain (UniProt Q149N8); chain KTSGGVNPEPCPICARQLGKQWAVLTCGHCFCNECISIIIEQYSVGSHRSSIKCAICRQTTSHKEISY", "B4": "TRIM34 RING domain (UniProt Q9BYJ4); chain ILLNVQEEVTCPICLELLTEPLSLDCGHSLCRACITVSNKEAVTSMGGKSSCPVCGISYSFEHLQA", "UniProt P62837, sequence (whole entry, looked up)": "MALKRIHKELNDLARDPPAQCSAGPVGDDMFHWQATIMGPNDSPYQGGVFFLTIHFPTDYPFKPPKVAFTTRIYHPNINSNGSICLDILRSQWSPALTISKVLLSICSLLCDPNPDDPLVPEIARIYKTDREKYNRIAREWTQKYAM"}
{"Molecule": "B1 (MARCHF2 RING domain)", "lacZ reporter activity": 0}
{"Molecule": "B2 (RNF17 RING domain)", "lacZ reporter activity": 0}
{"Molecule": "VPADASPDSKCPICLDRFDNVSYLDRCLHKFCFRCVQEWSKNKAECPLCKQPFDSIFHSV (TOPORS RING domain (UniProt Q9NS56))", "lacZ reporter activity": 17900}
{"Molecule": "B3 (SHPRH RING domain)", "lacZ reporter activity": 0}
{"Molecule": "EDVLSKDAGECAICLEELQQGDTIARLPCLCIYHKGCIDEWFEVNRSCPEHPSD (ZNRF2 RING domain (UniProt Q8NHG8))", "lacZ reporter activity": 15600}
{"Molecule": "B4 (TRIM34 RING domain)", "lacZ reporter activity": 0}
{"data": "Block 4", "target": "HLA class I histocompatibility antigen, A alpha chain, allele A*26:03 (Homo sapiens, UniProt P04439)", "read-out": "peptide-MHC binding", "form": "peptide", "concentration": "concentration not given"}
{"Molecule": "RKWGLDFCY", "binding": "inactive"}
{"Molecule": "VFFKQWFEK", "binding": "inactive"}
{"Molecule": "FRHSVVVPY", "binding": "inactive"}
{"Molecule": "KVQEWYLSY", "binding": "inactive"}
{"data": "Block 5", "target": "Ras GTPase-activating protein-binding protein 1, C-terminal RGG region (G3BP1, Homo sapiens, UniProt Q13283)", "method": "RNA Bind-n-Seq", "form": "RNA", "medium": "in vitro", "concentration": "1 µM", "notes": "whole 134-nt RNA, ends assumed", "with": "150 mM KCl", "reference": "input library", "reading": "higher = stronger binding", "constant ends, left off below": "GGGAGUUCUACAGUCCGACGAUC … UGGAAUUCUCGGGUGUCAAGG", "UniProt Q13283, sequence (whole entry, looked up)": "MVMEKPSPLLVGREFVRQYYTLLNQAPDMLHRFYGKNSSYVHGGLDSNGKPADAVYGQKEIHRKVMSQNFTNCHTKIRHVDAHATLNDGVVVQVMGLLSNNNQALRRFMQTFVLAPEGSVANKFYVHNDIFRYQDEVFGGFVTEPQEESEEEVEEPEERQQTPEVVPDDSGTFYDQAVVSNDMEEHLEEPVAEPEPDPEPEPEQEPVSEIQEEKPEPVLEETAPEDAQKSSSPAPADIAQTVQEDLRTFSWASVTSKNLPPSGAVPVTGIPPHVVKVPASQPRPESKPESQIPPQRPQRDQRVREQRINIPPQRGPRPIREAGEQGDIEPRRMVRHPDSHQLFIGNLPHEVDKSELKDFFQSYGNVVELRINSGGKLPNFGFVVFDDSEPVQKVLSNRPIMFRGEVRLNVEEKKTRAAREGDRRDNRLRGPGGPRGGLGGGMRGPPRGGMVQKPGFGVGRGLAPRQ"}
{"Strand": "GUCCUGUGCUACACAUCGUAUGUACCGAAUCGGGCCCCCGGCCCCCGGGGCCCCCGGGGAAAGUAUUAUGUUACGCCGUUCGGAUCUGCA", "log2 enrichment": -1.92}
{"Strand": "UUCUUACAUGUGUAAUCUUCUUCUCCUAGGGCGGCAGAACUCAUGACAAGAACAAGCUCUGUGGUGACACUGGAAGUAGCAAAGCAGGGU", "log2 enrichment": -0.351}
{"Strand": "AGUCCUGUGCUACACAUCGUAUGUACCGAAUCGGGGAAAGGGGAAAAAGGGGAGGGGAAAGUAUUAUGUUACGCCGUUCGGAUCUGCACU", "log2 enrichment": 3.07}
{"Strand": "ACCAUGCAGGUGGGCAUCUUUGGGAAGUGGGGCAAGGGGGGGAUAGGGAGGGGGGUAACACUUUGGGAACAGGUGGUCCCUGGUCGUUUC", "log2 enrichment": 1.36}
{"Strand": "CAAGUCCUGUGCUACACAUCGUAUGUACCGAAUCGGAAAAAAAGGAGGAAAAAGGAAAGUAUUAUGUUACGCCGUUCGGAUCUGCACUUC", "log2 enrichment": -1.8}
{"Strand": "UGGCCCUGGUGGCAUGCGGGGAGGAAGAGGUGGCCUCAUGGAUCCUGGUGGUCCCGGUGGAAUGUUCAGAGGUGGCCGUGGUGGAGACAG", "log2 enrichment": 2.38}
{"Strand": "UGGGAGGUGGAUUUUGUUUAUUUUUUUAGCUCAUUUCCAGGGGUGGGAAUUUUUUUUUAAUAUGUGUCAUGAAUAAAUUUGUUUUUGAAA", "log2 enrichment": 2.72}
{"Strand": "ACCAUGCAGGUGGGCAUCUUUGGGAAGUGGGGCAAGGGGGGGAUAGGGAGGGGUGUAACACUUUGGGAACAGGUGGUCCCAGGUCGUUUC", "log2 enrichment": 2.23}
